Measurements of several laboratories.
Protocols differ between the studies behind these lines. Numbers after ± are the reported error.

| Structure (SMILES) | cell line | assay | test system | conditions | how to read | quantity | value |
| --- | --- | --- | --- | --- | --- | --- | --- |
| CCCCCCCCC[P+](c1ccccc1)(c1ccccc1)c1ccccc1 | HCT-116 | cell growth or viability, MTT |  | 72 h |  | GI50 | 0.077 µM |
| C[C@H]1C(OCCCCC[P+](c2ccccc2)(c2ccccc2)c2ccccc2)O[C@@H]2O[C@@]3(C)CCC4[C@H](C)CCC1[C@]42OO3 (stereo partly shown) | T24 | MTT |  | 72 h | reference: HUVEC IC50 over T24 IC50 | selectivity index | 1.18 |
| CCCCCCCC/C=C\CCCCCCCCOP(O)(O)=S.N | human cord blood CD34+ cells | clonogenic |  | 1 µM, 4 h, from 30 min after irradiation, together with: 6 Gy irradiation |  | colony count increase | 64% |
| CC(C)c1cnn2c(NCc3ccccc3)cc(N[C@@H](CO)[C@H](O)CO)nc12 | MCF7 resistant to compound | sulforhodamine B |  |  | reference: resistant over parental MCF7 | GI50 ratio | 2.5 fold |
| CC/C=C\C/C=C\C/C=C\C/C=C\C/C=C\C/C=C\CCC(=O)Nc1ccn(C2OC(CO)C(O)C2(F)F)c(=O)n1 (stereo not shown) | SW-620 | NCI60 screen |  |  |  | CC50 | 84.4 µM |
| CC[C@@]1(O)C(=O)OCc2c1cc1n(c2=O)Cc2cc3cc(OC(=O)CCCC(=O)NCC(=O)N[C@@H](Cc4ccccc4)C(=O)N[C@@H](Cc4ccccc4)C(=O)N[C@@H](Cc4ccc(OP(=O)(O)O)cc4)C(=O)NCCSSCCNC(=O)CCC(=O)N[C@@H](CCC(=O)O)C(=O)N[C@@H](CCCNC(=N)N)C(=O)NCC(=O)N[C@@H](CC(=O)O)C(=O)O)ccc3nc2-1 | HepG2 | flow cytometry |  | 100 µM, 4 h | reference: free HCPT | cellular uptake | 20 fold |
| CC[C@H](C)[C@H](NC(=O)[C@H](CC(C)C)NC(=O)[C@@H](NC(=O)[C@@H](NC(=O)[C@H](CCSC)NC(C)=O)[C@@H](C)CC)[C@@H](C)CC)C(=O)N[C@H](C(=O)N[C@@H](CO)C(=O)N[C@@H](Cc1ccccc1)C(=O)N1CCC[C@H]1C(=O)N[C@@H](CCCCN)C(=O)N[C@@H](Cc1c[nH]cn1)C(=O)N[C@@H](CCCCN)C(=O)N[C@@H](CC(=O)O)C(=O)N[C@@H](Cc1c[nH]c2ccccc12)C(=O)N[C@@H](CCCCN)C(=O)N[C@H](C(=O)N[C@H](C(=O)N[C@@H](CC(C)C)C(=O)N[C@H](C(=O)N[C@@H](CCCCN)C(N)=O)C(C)C)[C@@H](C)CC)C(C)C)[C@@H](C)CC | mouse BMDMs, Irf5-/- and wild type |  |  | dose not given, 24 h, together with: LPS |  | TGF-β production | no effect |
| COC1CC(=O)N(C)C=CCCCC(=O)N(C)C(C(C)C)C(=O)N(C)C(CC(C)C)C(=O)OC(C(C)C)CC(C)C1 (stereo not shown) | HCT-116 | RNA sequencing, item: G-protein coupled receptor signalling |  | 20 µM, 12 h | direction not given | pathway activation z-score | 2.11 |
| COCCOCCOCCOc1ccc(-n2cc(CCCN(CCNc3ccnc4cc(Cl)ccc34)C(=O)CCC(=O)OC3OC4OC5(C)CCC6C(C)CCC(C3C)C46OO5)nn2)cc1 (stereo not shown) | HL-60 | cell growth or viability, resazurin |  | 10 µM, 48 h |  | inhibition | 72.2% |
| CC[C@H]1OC(=O)[C@H](C(C)C)NC(=O)[C@H](C)OC(=O)[C@@H](C(C)C)NC(=O)[C@@H](C(C)C)OC(=O)[C@H](C(C)C)NC(=O)[C@H](C)OC(=O)[C@@H](C(C)C)NC(=O)[C@@H](C(C)C)OC(=O)[C@H](C(C)C)NC(=O)[C@H](C)OC(=O)[C@@H](C(C)C)NC1=O | U-251 | PI flow cytometry |  | 0.8 µM, 12 h | reference: untreated control | G0/G1 cell fraction increase | 17.9% |
| CC(=O)NC1C(OC2OC(CC(O)C3OC(n4ccc(=O)[nH]c4=O)C(O)C3O)C(O)C(O)C2NC(=O)COCc2ccc(N3CCC(Oc4ccc(OC(F)(F)F)cc4)CC3)cc2)OC(CO)C(O)C1O (stereo not shown) | MCF7, SK-BR-3, MDA-MB-231 | cell growth |  |  |  | cytostatic concentration | 1.25 to 4.5 µM |
| CC[C@@]1(OC(=O)CCC(=O)NCCCC[C@H](NC(=O)[C@H](Cc2ccccc2)NC(=O)[C@H](Cc2ccccc2)NC(=O)CCSC2=C(/C=C/C3=[N+](C)c4ccccc4C3(C)C)CCC/C2=C\C=C2\N(C)c3ccccc3C2(C)C)C(=O)N[C@@H](CCCCNC(=O)CCCC[C@@H]2SC[C@@H]3NC(=O)N[C@@H]32)C(=O)O)C(=O)OCc2c1cc1n(c2=O)Cc2cc3ccccc3nc2-1 | 4T1 | CCK-8 |  | 20 µM, 4 h then 24 h, together with: 808 nm laser 1 W/cm2 5 min | reference: untreated | viability | 1.3% |
| O=C(O)CCC(NP(=O)(O)OCCC[C@@H](NC(=O)CCC(NC(=O)c1ccc([18F])cc1)C(=O)O)C(=O)O)C(=O)O (stereo partly shown) | CWR22Rv1 |  |  | 1 h |  | internalized fraction | 80.7% |
| CCCCc1ccc(C(=O)N[C@@H](CO)C(=O)N[C@H](C(=O)N2CCC[C@H]2C(=O)N[C@@H](CC(N)=O)C(=O)NCC(=O)N[C@@H](CC(C)C)C(=O)O)[C@@H](C)OP(=O)(O)O)cc1 | HeLa-H2B-GFP, QQ transfected |  |  | 30 µM |  | aberrant prometaphase/metaphase cells | 54% |
| CC(C)CC(O)(CC(C)C)c1cn(C(=O)N2CCCC2)nn1 | mouse T-cells | SILAC proteomics, item: TMSB4X |  | 1 nM, 6 h, unit not given | reference: DMSO | protein level | 1.19 ± 0.08 |
| N=C(N)NCCC[C@H](NC(=O)[C@H](CCCNC(=N)N)NC(=O)[C@@H]1CCCN1C(=O)[C@H](CCCNC(=N)N)NC(=O)[C@H](CCCNC(=N)N)NC(=O)[C@H](CCCNC(=N)N)NC(=O)[C@H](Cc1c[nH]c2ccccc12)NC(=O)[C@H](CCCNC(=N)N)NC(=O)[C@H](CCCNC(=N)N)NC(=O)[C@H](CCCNC(=N)N)NC(=O)[C@H](CCCNC(=N)N)NC(=O)[C@H](CCCNC(=N)N)NC(=O)[C@H](Cc1c[nH]c2ccccc12)NC(=O)[C@H](CCCNC(=N)N)NC(=O)[C@H](CCCNC(=N)N)NC(=O)[C@H](Cc1ccc(O)cc1)NC(=O)[C@H](CCCNC(=N)N)NC(=O)[C@H](CCCNC(=N)N)NC(=O)[C@H](CCCNC(=N)N)NC(=O)[C@@H](N)Cc1c[nH]c2ccccc12)C(N)=O | HBMEC |  | PBS | 5.2 µM, 30 min, 37 °C |  | zeta potential | -5.6 ± 0.4 mV |
| C(#C[P+](c1ccccc1)(c1ccccc1)c1ccccc1)c1ccccc1 | H1299 with HSP70 shRNA | Western blot | detergent-insoluble fraction | concentration not given |  | ubiquitinated protein level | decreased |
| CCOP(=O)(OCC)OCCCCOC(=O)CC1=C(C)C(=Cc2ccc([S+](C)[O-])cc2)c2ccc(F)cc21 (stereo not shown) | H23 | cell proliferation, BrdU incorporation |  | IC50, 24 h |  | inhibition | 49% |
| NC1CCCCC1N.O=C1[O][Pt]([O]C(=O)c2ccc(P(c3ccccc3)c3ccccc3)cc2)([O]C(=O)c2ccc(P(c3ccccc3)c3ccccc3)cc2)[O]C1=O.[Cl][Au].[Cl][Au] | MDA-MB-231 | annexin V/PI flow cytometry |  | IC50, 72 h |  | early apoptotic cells increase | 55% |
| CC(=O)N[C@@H](Cc1c[nH]c2ccccc12)C(=O)N[C@@H](CCC(=O)O)C(=O)N[C@@H](C)C(=O)N[C@@H](CC(=O)O)C(=O)COC(=O)c1c(C)cccc1C | THP-1 FKBP-caspase-11 | LDH release |  | 10 µM, together with: B/B 50 nM |  | pyroptosis | decreased |
| C[C@H]1C(OCCCCCCCC[P+](c2ccccc2)(c2ccccc2)c2ccccc2)O[C@@H]2O[C@@]3(C)CCC4[C@H](C)CCC1[C@]42OO3 (stereo partly shown) | T24 | EdU |  | concentration not given, dose-dependent | reference: control | cell proliferation | decreased |
| CC[C@H](C)[C@H](NC(=O)[C@@H](NC(=O)C(C)(C)N)C(C)C)C(=O)N[C@@H](C)C(N)=O | PC-12 | Aβ42-induced neurotoxicity, inhibitor, MTT |  | concentration not given, 6 h, 37 °C, peptide to Aβ42 1:2, together with: Aβ42 2 µM | reference: untreated cells | viability | 95.1% |
